Results gathered from unrelated publications.
Lines come from different studies, so protocols differ. ± marks the error that the study gave.

SMILES	cell line	assay	conditions	IC50
CC1(C)CCCC(C)(C2CCC3(C)C2C(O)CC2C4(C)CCC(OC(=O)/C=C\c5ccc(Cl)cc5)C(C)(C)C4C(O)CC23C)O1 (centres unmarked)	Hep3B	HRE reporter gene, inhibitor	24 h, hypoxia	6.07 ± 0.07 µM
CN(C)c1ccc(-c2nc3ccccn3c2Nc2ccc(C(=O)NO)cc2)cc1	CAL-27	HDAC activity, inhibitor, whole-cell	–	14 µM
CCc1n(CC(=O)O[C@@H]2C[C@H](C)CC[C@H]2C(C)C)c2ccccc2[n+]1C	Daoy	cell viability	together with: cyclosporin A 1 µM	1.87 µM
CC(=O)N[C@@H](CCCNC(=N)N)C(=O)N[C@H](CC(=O)N[C@@H](Cc1ccccc1)C(N)=O)c1cccc2ccccc12	SK-BR-3 (HER2-overexpressing)	–	–	9.75 ± 0.33 µM
COC(=O)c1ccc(C[Se]CC2C(=O)C34C(O)C2CCC3C23COC4(O)C(O)C2C(C)(C)CCC3O)cc1 (centres unmarked)	normal cells	–	–	> 50 µM
CC(C)=CCOc1ccc(-c2coc3cc4c(c(O)c3c2=O)C=CC(C)(C)O4)cc1	Huh-7	cell growth or viability, MTT	24 h	> 100 µM
COC(=O)[C@]12CS[C@H](c3ccccc3)N1C(=O)/C(=C(\O)CCc1ccccc1)C2=O	MDCK	cell growth or viability, resazurin	–	62.5 µg/mL
CC1(C)CCCC(C)(C2CCC3(C)C2C(O)CC2C4(C)CCC(O)C(C)(C)C4C(OC(=O)/C=C\c4ccccc4)CC23C)O1 (centres unmarked)	Hep3B	HRE reporter gene, inhibitor	24 h, hypoxia	2.39 ± 0.12 µM
Cc1c(OCc2ccccc2)c(=O)ccn1CCCOC(=O)c1ccc(Cl)cc1	fibroblast cells	cell viability, MTT	48 h	85 µg/mL
Cc1ccc(NC(=O)c2c(C)oc3ccc(O)c(CN4CCCCCC4)c23)cc1	KMS-12-PE	cell growth or viability, MTS	72 h	6.5 µM
COc1cccc(-c2ccc(Nc3ccc(CN(C)C)cc3)c(OC)c2F)c1	SNU-1	ERK phosphorylation, HTRF	–	124 µM
CC1(C)CCCC(C)(C2CCC3(C)C2C(O)CC2C4(C)CCC(OC(=O)[C@@H](N)Cc5c[nH]c6ccccc56)C(C)(C)C4C(O)CC23C)O1 (some centres unmarked)	Hep3B	HRE reporter gene, inhibitor	24 h, hypoxia	2.11 ± 0.28 µM
CC(C)Cc1ccc(C(C)C(=O)NN=Cc2ccc(OCC(=O)NN=Cc3cccc([N+](=O)[O-])c3)cc2)cc1 (centres unmarked)	U87 MG	cytotoxicity, MTT	–	35.73 ± 0.09 µM
NC(CSSCC(N)C(=O)N1CCn2cc(-c3ccccc3)nc2C1CC1CCCCC1)C(=O)N1CCn2cc(-c3ccccc3)nc2C1CC1CCCCC1 (centres unmarked)	92.1 GNAQ Q209L	cell growth	72 h	9.7 ± 0.1 µM
COc1cc(CN2CCN(c3ccc(OC(F)(F)F)cc3)CC2)c2cc3[n+](cc2c1O)CCc1cc2c(cc1-3)OCO2	Ca-Ski	cell growth or viability, SRB	48 h	4.98 µg/mL
C[C@]12CC/C(=N\OCCN3CCCCC3)C=C1CCC1C2CC[C@]2(C)/C(=C/c3ccccn3)CCC12 (some centres unmarked)	CEM	cytotoxicity, alamarBlue	72 h	18 µM
COc1ccc(/C=C\C(=O)OC2CC3(C)C(CC(O)C4C(C5(C)CCCC(C)(C)O5)CCC43C)C3(C)CCC(O)C(C)(C)C23)cc1 (centres unmarked)	Hep3B	HRE reporter gene, inhibitor	24 h, hypoxia	15.6 µM
O=C(/C=C/c1ccc(O)cc1)c1ccccc1	human cells	NF-κB reporter gene, inhibitor	together with: TNF-alpha	24 µM

SMILES	cell line	assay	conditions	IC50
C[N+]1(C)CC[NH2+][Pt-2]1([OH])([OH])([Cl])[Cl]	P31	cell viability, EZ4U	96 h	63 ± 2 µM
CCOC(=O)c1csc2nc(-c3cccc(NC(=O)c4cc5cc(NC(=O)c6ccco6)ccc5n4Cc4ccc(C(F)(F)F)cc4)c3)cn12	RAW264.7	IL-6 release, inhibitor, ELISA	24 h, LPS-stimulated	4.71 µM
N[C@@H](CCC(=O)N[C@@H](CS[Se]Cc1ccc(-c2cc(C(F)(F)F)nn2-c2ccc(S(N)(=O)=O)cc2)cc1)C(=O)NCC(=O)O)C(=O)O	UACC-903 melanoma cells	cell viability, MTS	48 h, metastatic stage	20.6 ± 1.7 µM
CCCC[C@@H]1NC(=O)CN(S(C)(=O)=O)CCNC(=O)[C@H](CCCCN)NC(=O)[C@H](CC(C)C)NC(=O)[C@H](CCCCN)NC(=O)[C@H](CC(C)C)NC(=O)[C@H](CCCCN)NC(=O)COC[C@H]2CCCN2C(=O)[C@H](Cc2c[nH]c3ccccc23)NC(=O)[C@H](C)NC(=O)[C@H](C(C)C)NC(=O)[C@H](C(C)C)NC1=O	NCI-H929	viability, TO-PRO-3 staining, flow cytometry	–	1.2 µM
NC(=S)NNC(=O)c1cc2c(ccc3ccccc32)oc1=O	EA.hy 926	cell growth or viability, SRB	72 h	31.6 µM
COc1cc(CC(=O)N2CC(=O)N[C@@H](Cc3ccccc3)CN(C(=O)Cc3ccc4ccccc4c3)CC(=O)N[C@@H](CCCCN)CN(C(=O)Cc3ccc4c(c3)OCO4)CC(=O)N[C@@H](CCCCN)CN(CC(N)=O)C(=O)CCSCc3ccc(cc3)C(=O)N[C@@H](CC(C)C)C2)cc(OC)c1	SK-BR-3	western blot, refers to: phospho-HER2	4 h	12.9 µM
CC(C)(C)OC(=O)NCC(=O)OC1CC2(C)C(CC(O)C3C(C4(C)CCCC(C)(C)O4)CCC32C)C2(C)CCC(OC(=O)CNC(=O)OC(C)(C)C)C(C)(C)C12 (centres unmarked)	Hep3B	HRE reporter gene, inhibitor	24 h, hypoxia	2.71 ± 0.11 µM
[Cl][Pd-]1([Cl])[S]C(Nc2ccccc2)=N[N+]1=Cc1cccs1	MDCK	cell proliferation	–	> 100 µM
Brc1ccc(Nc2nc(NN=Cc3c[nH]c4ccccc34)nc(N3CCOCC3)n2)cc1	SK-BR-3	cell growth or viability, SRB	5 days	0.4 µM
C=CCc1ccc(OC(C)=O)c(OC)c1	HMEC	MTT	24 h	> 50 µM
CC1CCc2c(c(-c3c[nH]nc3C(F)(F)F)nc3ccc4[nH]ncc4c23)C1 (centres unmarked)	MOLM-14	cell growth or viability, resazurin	72 h	0.0268 µM
O=c1[nH]c2ccccc2nc1/C=C/C=C/c1ccccc1	HeLa 229	cell growth or viability, MTT	72 h	12.9 µM
COc1ccc(C(c2c[nH]c3ccc(Br)cc23)c2c[nH]c3ccc(Br)cc23)cc1	B16	cell growth or viability, MTT	24 h	4.4 µM
Cc1ccc2ncc(Nc3ccc(C(=O)NO)cc3)n2c1	CAL-27	HDAC activity, inhibitor, whole-cell	–	17.5 µM
C=C(C)[C@@H]1CC[C@]2(C(=O)O)CC[C@]3(C)[C@H](CC[C@@H]4[C@@]5(C)CC[C@H](O[C@@H]6O[C@@H](C)[C@H](OC)[C@@H](O)[C@H]6O)C(C)(C)[C@@H]5CC[C@]43C)[C@@H]12	DLD-1	cell growth or viability, fluorescence	48 h	4.3 µM
CCCC[C@@H]1NC(=O)CN(S(C)(=O)=O)CCNC(=O)[C@H](CCCCN)NC(=O)[C@H](CC(C)C)NC(=O)[C@H](CCC(N)=O)NC(=O)[C@H](CC(C)C)NC(=O)[C@H](CCCCN)NC(=O)COC[C@H]2CCCN2C(=O)[C@H](Cc2c[nH]c3ccccc23)NC(=O)[C@H](C)NC(=O)[C@H](C(C)C)NC(=O)[C@H](C(C)C)NC1=O	NCI-H929	viability, TO-PRO-3 staining, flow cytometry	–	13.3 µM
CC1(C)Cc2c(-c3ccccc3)c(-c3ccc(Cl)cc3)c(CC(=O)O)n2C1	THP-1-derived macrophages	PGI2 production	together with: LPS	0.85 µM

A few entries again:
SMILES	cell line	assay	conditions	IC50
Cc1c(OCc2ccccc2)c(=O)ccn1CCCOC(=O)c1ccc(Cl)cc1	fibroblast cells	cell viability, MTT	48 h	85 µg/mL
Cc1ccc(NC(=O)c2c(C)oc3ccc(O)c(CN4CCCCCC4)c23)cc1	KMS-12-PE	cell growth or viability, MTS	72 h	6.5 µM
COc1cccc(-c2ccc(Nc3ccc(CN(C)C)cc3)c(OC)c2F)c1	SNU-1	ERK phosphorylation, HTRF	–	124 µM
CC1(C)CCCC(C)(C2CCC3(C)C2C(O)CC2C4(C)CCC(OC(=O)[C@@H](N)Cc5c[nH]c6ccccc56)C(C)(C)C4C(O)CC23C)O1 (some centres unmarked)	Hep3B	HRE reporter gene, inhibitor	24 h, hypoxia	2.11 ± 0.28 µM
CC(C)Cc1ccc(C(C)C(=O)NN=Cc2ccc(OCC(=O)NN=Cc3cccc([N+](=O)[O-])c3)cc2)cc1 (centres unmarked)	U87 MG	cytotoxicity, MTT	–	35.73 ± 0.09 µM
